Experimental data of several laboratories.
Protocols differ between the studies behind these lines. Values joined by “and” are separate records of one study, mostly repeats; a detail may differ.
PRKCB isoform beta-II: Protein kinase C beta type, isoform beta-II (PRKCB, Homo sapiens, UniProt P05771)
PRKCB isoform beta-I: Protein kinase C beta type, isoform beta-I (PRKCB, Homo sapiens, UniProt P05771)

Nc1ncc(-c2cc(-c3cnn(CC(F)(F)F)c3)ncc2F)nc1C(=O)NC1CNCC(F)C1 (stereo not drawn)
remaining activity (PRKCB isoform beta-II; enzyme activity; 1 µM; reference: DMSO control): 79.4%

COc1ccc(NC(=O)Nc2ccc3c(c2)C(=O)N(C(C)CO)CC(C)C(CN(C)Cc2ccc4c(c2)OCO4)O3)cc1 (stereo not drawn)
remaining activity (PRKCB isoform beta-II; kinase activity, KinaseProfiler; 0.03 µM, species human; reference: control): 95%

C=CC(=O)Nc1cccc(-c2cnc3[nH]cc(C(=O)NC(C)(C)C)c3n2)c1
inhibition (PRKCB isoform beta-I; kinase activity, inhibitor, kinase panel; 0.1 µM): -3% and 1%

CN1CCN(Cc2ccc(-c3ccc(CO[C@H]4CCC[C@@H]4NC(=O)c4cc(-c5cnn(C)c5)cnc4N)cc3)cc2)CC1
inhibition (PRKCB isoform beta-II; SelectScreen kinase profiling; 0.1 µM): 10%

COCC12C(=O)NC3C4(C(OC)CC1O)C1CC5(O)C(OC)C(O)C(OC(C)=O)(C1C5OC(=O)c1ccccc1)C3(O)C(OC)C24 (stereo not drawn)
remaining activity (PRKCB isoform beta-I; kinase activity, inhibitor, ProQinase kinase profiling; 25 µM; reference: control): 104% and 111%

COc1c(OCCCN2CCOCC2)ccc2c1N=C(NC(=O)c1cnc(N)nc1)N1CCN=C21
remaining activity (PRKCB isoform beta-II; kinase activity, inhibitor; 1 µM; reference: untreated control): 114%

CNC(=O)C[C@H](Cc1ccc(C#N)cc1)NC(=O)c1cc(-c2ccc(CN[C@H](C)c3ccc(C)cc3)o2)ccc1Cl
remaining activity (PRKCB isoform beta-II; enzyme activity, KinaseProfiler panel; 1 µM): 107%

Cc1cccc(O[C@H]2CCC[C@@H](C(C)CNCc3ccncc3)C2)c1 (relative stereo)
inhibition (PRKCB isoform beta-I; kinome profiling; 1 µM): 3%

CN1CC[C@@H](COc2cnc(C#N)cc2-c2ccn3nc(NC(=O)C4CC4)cc3c2)C1
inhibition (Protein kinase C beta type, beta-I isoform (PRKCB, Homo sapiens, UniProt P05771); kinase activity; 1 µM): 5%

NC(=O)[C@@H](O)C[C@H]1CCc2sc3ncnc(O[C@H]4CC[C@H](N5CCOCC5)CC4)c3c21
inhibition (PRKCB isoform beta-II; radioisotope kinase; 10 µM): 9%

C=CC(=O)N1Cc2nc(-c3cc(-c4cc(Cl)cnc4Cl)c(F)cc3F)n(-c3ccncn3)c2C1
inhibition (Protein kinase C beta type (PRKCB, Homo sapiens, UniProt P05771); cell-free assay; 1 µM): 1.2%

O=C=[N][Ru-4]123([n]4c5ccc(O)cc5c5c6c(c7cc(F)c[n+]1c7c54)C(=O)NC6=O)[S+]1CC[S+]2CC[S+]3CC1 (stereo not drawn)
remaining activity (PRKCB isoform beta-II; enzyme activity; 100 nM, human enzyme, added: 10 µM ATP; reference: untreated): 82%

O=C(Cc1ccc(OCc2ccccc2)cc1)NC1(C(=O)O)CCN(C(=O)c2ccc(-c3cccc(Cl)c3)cc2)CC1
remaining activity (PRKCB isoform beta-II; kinase activity, inhibitor; 10 µM, added: ATP at Km): 103%

CCn1cc(C(=O)O)c(=O)c2c(N)c(F)c(NC3CCCCC3)cc21
inhibition (PRKCB isoform beta-II; kinase activity; 0.1 µM, added: ATP at Km): 3.9%

NC(=O)C[C@H]1CCc2sc3ncnc(O[C@H]4CC[C@H](N5CCOCC5)CC4)c3c21
inhibition (PRKCB isoform beta-I; radioisotope kinase; 10 µM): 6%

Repeated from above:
COCC12C(=O)NC3C4(C(OC)CC1O)C1CC5(O)C(OC)C(O)C(OC(C)=O)(C1C5OC(=O)c1ccccc1)C3(O)C(OC)C24 (stereo not drawn)
remaining activity (PRKCB isoform beta-I; kinase activity, inhibitor, ProQinase kinase profiling; 25 µM; reference: control): 104% and 111%
